Measurements pooled from the literature.
Lines come from different studies, so protocols differ. ± gives the spread as reported.
PPARG: Peroxisome proliferator-activated receptor gamma (PPARG, Homo sapiens, UniProt P37231)
Chain of UniProt P37231 (whole entry, looked up): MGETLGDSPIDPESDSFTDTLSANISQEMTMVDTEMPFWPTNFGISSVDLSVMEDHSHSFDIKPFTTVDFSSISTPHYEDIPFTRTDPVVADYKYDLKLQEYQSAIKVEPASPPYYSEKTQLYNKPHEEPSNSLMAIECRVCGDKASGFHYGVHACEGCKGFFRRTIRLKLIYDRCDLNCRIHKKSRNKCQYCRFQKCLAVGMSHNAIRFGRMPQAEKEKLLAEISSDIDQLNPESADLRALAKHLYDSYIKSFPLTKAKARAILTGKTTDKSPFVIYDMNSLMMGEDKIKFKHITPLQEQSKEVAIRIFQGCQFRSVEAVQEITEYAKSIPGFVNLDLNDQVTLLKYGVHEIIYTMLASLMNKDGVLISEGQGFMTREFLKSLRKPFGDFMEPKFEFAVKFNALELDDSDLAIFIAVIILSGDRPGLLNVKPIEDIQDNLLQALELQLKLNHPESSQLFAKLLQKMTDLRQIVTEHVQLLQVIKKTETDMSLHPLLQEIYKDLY
Rhomboid protease AarA: Rhomboid protease AarA (Providencia stuartii, UniProt P46116)
Chain of UniProt P46116 (whole entry, looked up): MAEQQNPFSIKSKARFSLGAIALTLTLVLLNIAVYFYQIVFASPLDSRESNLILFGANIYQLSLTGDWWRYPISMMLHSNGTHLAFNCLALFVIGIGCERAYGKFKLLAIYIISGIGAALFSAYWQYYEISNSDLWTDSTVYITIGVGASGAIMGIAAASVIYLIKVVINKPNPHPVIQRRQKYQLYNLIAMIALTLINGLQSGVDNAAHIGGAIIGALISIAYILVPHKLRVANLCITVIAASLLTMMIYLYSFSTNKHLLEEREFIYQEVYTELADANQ
Chain of UniProt Q13547 (whole entry, looked up): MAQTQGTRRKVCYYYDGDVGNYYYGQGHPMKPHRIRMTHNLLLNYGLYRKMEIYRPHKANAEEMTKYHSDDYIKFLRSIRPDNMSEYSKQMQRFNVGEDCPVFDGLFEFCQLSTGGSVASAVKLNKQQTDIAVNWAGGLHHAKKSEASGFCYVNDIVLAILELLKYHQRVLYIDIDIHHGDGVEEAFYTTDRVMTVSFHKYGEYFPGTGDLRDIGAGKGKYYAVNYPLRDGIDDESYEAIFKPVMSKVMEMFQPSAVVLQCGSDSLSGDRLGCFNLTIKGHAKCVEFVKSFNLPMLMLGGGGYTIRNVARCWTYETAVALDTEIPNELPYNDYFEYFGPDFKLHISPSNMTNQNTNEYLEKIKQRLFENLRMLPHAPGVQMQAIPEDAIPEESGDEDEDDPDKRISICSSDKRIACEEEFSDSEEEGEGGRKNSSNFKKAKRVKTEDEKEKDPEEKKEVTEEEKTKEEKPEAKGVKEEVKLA
Chain of UniProt Q92793 (whole entry, looked up): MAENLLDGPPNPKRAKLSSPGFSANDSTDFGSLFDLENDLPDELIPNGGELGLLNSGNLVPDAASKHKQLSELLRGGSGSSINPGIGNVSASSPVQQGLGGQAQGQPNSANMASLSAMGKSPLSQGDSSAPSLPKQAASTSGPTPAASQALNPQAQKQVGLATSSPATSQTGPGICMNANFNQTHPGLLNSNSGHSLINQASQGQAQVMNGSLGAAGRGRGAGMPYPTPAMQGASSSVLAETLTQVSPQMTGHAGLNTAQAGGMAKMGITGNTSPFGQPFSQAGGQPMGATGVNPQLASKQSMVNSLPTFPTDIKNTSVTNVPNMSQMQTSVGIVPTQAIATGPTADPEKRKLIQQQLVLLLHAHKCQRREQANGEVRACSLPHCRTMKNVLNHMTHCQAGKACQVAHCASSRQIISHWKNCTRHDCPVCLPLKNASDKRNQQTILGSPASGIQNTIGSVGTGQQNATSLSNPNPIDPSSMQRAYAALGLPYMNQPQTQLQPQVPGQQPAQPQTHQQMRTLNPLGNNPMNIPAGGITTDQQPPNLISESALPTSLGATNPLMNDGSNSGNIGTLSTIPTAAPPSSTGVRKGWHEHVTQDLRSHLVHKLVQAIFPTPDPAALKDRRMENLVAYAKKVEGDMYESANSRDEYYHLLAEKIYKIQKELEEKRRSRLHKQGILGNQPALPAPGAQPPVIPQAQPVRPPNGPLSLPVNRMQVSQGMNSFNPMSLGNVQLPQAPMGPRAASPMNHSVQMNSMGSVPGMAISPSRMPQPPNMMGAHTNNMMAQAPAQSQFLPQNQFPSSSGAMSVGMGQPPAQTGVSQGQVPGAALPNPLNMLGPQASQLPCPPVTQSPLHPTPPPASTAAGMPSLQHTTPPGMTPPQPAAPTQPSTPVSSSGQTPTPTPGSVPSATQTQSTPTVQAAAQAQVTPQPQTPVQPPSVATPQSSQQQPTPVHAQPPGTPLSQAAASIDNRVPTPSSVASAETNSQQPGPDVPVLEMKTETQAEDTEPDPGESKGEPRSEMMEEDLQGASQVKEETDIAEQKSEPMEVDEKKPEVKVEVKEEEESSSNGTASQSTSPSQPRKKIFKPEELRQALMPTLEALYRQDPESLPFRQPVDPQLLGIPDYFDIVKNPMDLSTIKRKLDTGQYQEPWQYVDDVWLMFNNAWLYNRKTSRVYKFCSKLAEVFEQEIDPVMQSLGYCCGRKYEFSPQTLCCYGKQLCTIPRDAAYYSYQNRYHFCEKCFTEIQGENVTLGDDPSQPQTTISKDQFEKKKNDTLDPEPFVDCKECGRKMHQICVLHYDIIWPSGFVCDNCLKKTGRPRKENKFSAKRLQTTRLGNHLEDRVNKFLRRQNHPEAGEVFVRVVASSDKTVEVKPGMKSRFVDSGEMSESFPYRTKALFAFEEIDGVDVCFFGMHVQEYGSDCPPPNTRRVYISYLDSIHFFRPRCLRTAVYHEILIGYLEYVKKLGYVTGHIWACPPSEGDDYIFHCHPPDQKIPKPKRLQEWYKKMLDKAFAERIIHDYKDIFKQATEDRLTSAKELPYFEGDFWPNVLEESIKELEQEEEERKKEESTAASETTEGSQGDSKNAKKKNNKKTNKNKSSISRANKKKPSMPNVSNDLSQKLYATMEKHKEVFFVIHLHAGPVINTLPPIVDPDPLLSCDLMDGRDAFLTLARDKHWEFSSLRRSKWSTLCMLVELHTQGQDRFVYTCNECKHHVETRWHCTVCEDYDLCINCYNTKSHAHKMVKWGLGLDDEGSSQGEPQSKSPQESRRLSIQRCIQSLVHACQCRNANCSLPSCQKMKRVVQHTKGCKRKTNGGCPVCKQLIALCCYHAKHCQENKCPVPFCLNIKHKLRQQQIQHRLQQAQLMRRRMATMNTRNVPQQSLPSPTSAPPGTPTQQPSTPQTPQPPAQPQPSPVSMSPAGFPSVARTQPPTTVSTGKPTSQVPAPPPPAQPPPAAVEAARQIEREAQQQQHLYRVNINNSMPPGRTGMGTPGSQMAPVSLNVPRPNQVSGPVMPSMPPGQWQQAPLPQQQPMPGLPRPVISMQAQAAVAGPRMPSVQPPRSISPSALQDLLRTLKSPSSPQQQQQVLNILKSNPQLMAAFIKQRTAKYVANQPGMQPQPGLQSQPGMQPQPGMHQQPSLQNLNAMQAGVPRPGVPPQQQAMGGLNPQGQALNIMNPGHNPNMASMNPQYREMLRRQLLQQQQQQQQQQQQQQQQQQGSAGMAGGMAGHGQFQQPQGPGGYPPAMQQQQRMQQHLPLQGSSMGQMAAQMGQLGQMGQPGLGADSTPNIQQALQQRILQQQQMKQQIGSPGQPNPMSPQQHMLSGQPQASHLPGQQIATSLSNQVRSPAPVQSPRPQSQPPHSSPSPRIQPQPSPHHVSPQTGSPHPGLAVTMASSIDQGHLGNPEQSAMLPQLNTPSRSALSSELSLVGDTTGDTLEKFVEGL
Chain of UniProt Q9UQL6 (whole entry, unmodified, looked up): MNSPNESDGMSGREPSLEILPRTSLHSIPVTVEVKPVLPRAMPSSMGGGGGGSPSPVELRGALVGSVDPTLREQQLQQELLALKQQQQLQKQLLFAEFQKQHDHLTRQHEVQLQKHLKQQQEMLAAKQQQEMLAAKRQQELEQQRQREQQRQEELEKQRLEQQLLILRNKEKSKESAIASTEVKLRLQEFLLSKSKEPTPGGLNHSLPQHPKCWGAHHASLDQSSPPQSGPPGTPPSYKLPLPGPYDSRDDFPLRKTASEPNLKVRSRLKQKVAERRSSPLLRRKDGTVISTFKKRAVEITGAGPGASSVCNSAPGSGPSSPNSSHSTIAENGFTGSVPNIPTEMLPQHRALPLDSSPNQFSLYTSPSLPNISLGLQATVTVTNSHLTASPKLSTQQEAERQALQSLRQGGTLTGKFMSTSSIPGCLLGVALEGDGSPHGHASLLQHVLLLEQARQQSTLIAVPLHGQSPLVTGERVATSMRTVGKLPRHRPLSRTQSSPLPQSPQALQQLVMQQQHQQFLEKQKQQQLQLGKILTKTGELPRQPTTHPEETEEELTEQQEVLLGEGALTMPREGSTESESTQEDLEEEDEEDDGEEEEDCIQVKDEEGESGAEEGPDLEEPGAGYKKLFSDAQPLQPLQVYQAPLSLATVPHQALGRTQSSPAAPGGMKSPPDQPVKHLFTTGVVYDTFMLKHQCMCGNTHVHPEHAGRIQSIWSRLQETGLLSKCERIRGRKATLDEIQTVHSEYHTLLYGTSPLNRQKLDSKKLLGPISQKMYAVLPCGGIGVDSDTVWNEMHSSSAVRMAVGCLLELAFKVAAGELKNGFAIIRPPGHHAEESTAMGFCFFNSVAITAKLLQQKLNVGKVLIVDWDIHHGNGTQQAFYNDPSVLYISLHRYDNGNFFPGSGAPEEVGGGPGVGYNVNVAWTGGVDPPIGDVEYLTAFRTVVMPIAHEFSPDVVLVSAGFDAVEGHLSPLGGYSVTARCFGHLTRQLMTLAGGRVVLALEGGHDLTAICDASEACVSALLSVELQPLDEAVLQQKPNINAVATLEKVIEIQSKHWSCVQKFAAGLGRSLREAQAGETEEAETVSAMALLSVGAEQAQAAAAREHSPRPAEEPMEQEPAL

Structure (SMILES) | target or system | assay | system | conditions | how to read | quantity | value
COC1C(c2ccc(Cl)c(Cc3ccc(OC4CCOC4)cc3)c2)OC(CO)C(O)C1O (stereo not drawn) | SLC5A2 (Homo sapiens, UniProt P31639) | transporter uptake, inhibitor, radiometric | – | – | – | IC50 | > 0.1 µM
Cc1nn(-c2cccc(N)c2)c(=O)c2cnc(Nc3ccc(N4CCNCC4)cc3)nc12 | MAPK1 (Homo sapiens, UniProt P28482) | enzyme activity, inhibitor | – | – | – | IC50 | > 10 µM
Cc1c(Cc2ccc(OC(C)C(=O)O)cc2)c2ccc(C(=O)NC(C)c3cccc(C4CC4)c3)cc2n1C (mixture of isomers) | PPARG | ligand displacement, TR-FRET | – | – | – | IC50 | 0.038 µM
O=C(NC1CCN(Cc2ccccc2)C1)C(C(F)(F)F)C(F)(F)F (stereo not drawn) | Rhomboid protease AarA | enzyme activity, inhibitor, fluorescence | – | – | – | IC50 | 21 µM
Cc1c(Cc2cc(Cl)cc(O[C@@H](C)C(=O)O)c2)c2ccc(C(=O)N[C@@H](C)c3ccc(C(C)(C)C)cc3)cc2n1CC1CCC1 | PPARG | ligand displacement, TR-FRET | – | – | – | IC50 | 0.0116 µM
COC1CN([C@H]2CC[C@H]([C@@]3(C)Oc4c(Cl)cc(C(=O)NCc5c(SC)cc(C)[nH]c5=O)c(C)c4O3)CC2)C1 | – | RNA-seq, refers to: DUSP8 | human, whole blood | dose not given, 24 h | baseline: pretreatment baseline | log2 fold change | 1.74
Cc1ccc(NC(=O)C(C(F)(F)F)C(F)(F)F)cn1 | Rhomboid protease AarA | enzyme activity, inhibitor, fluorescence | – | – | – | IC50 | 27 µM
COc1cc(OC)c2c(=O)cc(-c3cc(C)c(OCCCN4CCN(C)CC4)c(C)c3)oc2c1 | CREBBP (Homo sapiens, UniProt Q92793) | cell-free assay, TR-FRET | – | – | – | IC50 | > 10 µM
CC[C@H](C)[C@@H]1NC(=O)[C@H](Cc2ccc(O)cc2)NC(=O)CSC[C@@H](C(N)=O)NC(=O)[C@H](CC(N)=O)NC(=O)[C@H](Cc2c[nH]cn2)NC(=O)[C@H](Cc2ccc(O)cc2)NC(=O)[C@H]([C@@H](C)O)NC(=O)[C@H](Cc2ccc(O)cc2)NC(=O)[C@H](CC(C)C)NC(=O)[C@H](CCCNC(=N)N)NC1=O | Melanoma-associated antigen 4, MAGE homology domain (Homo sapiens, UniProt P43358) | binding, inhibitor, TR-FRET displacement | – | with: Alexa647-MTP-1 | – | IC50 | 2.61 ± 0.53 µM
Cc1nnc(-c2ccc(CC(=O)NCCOCCOCCOCCOCC(=O)NC(CCN3C4CCC3CC(n3c(C)nnc3C(C)C)C4)c3ccccc3)cc2)nn1 (stereo not drawn) | CCR5 (Homo sapiens, UniProt P51681) | calcium mobilization, antagonist | HEK-293T | 2 h preincubation, top constrained to 1, with: 0.1 µM PSC-RANTES | – | IC50 | 0.0447 µM
Cc1c(Cc2cccc(OC(C)C(=O)O)c2)c2ccc(C(=O)N[C@@H](C)c3ccc(C(F)(F)F)cc3)cc2n1C (stereo partly drawn) | PPARG | ligand displacement, TR-FRET | – | – | – | IC50 | 0.001 µM
O=C(NCCOc1ccccc1NC(=O)C(C(F)(F)F)C(F)(F)F)c1ccccc1 | Rhomboid protease AarA | enzyme activity, inhibitor, fluorescence | – | – | – | IC50 | 10 µM
Cc1c(Cc2cccc(OC(C(=O)O)C3CC3)c2)c2ccc(C(=O)NC(C)c3cccc(C(C)(C)C)c3)cc2n1C (mixture of isomers) | Peroxisome proliferator-activated receptor gamma, ligand-binding domain (PPARG, Homo sapiens, UniProt P37231) | reporter gene, luciferase reporter | HEK293T, Gal4-PPARγ LBD | – | – | IC50 | 23.9 µM
COc1cc2c(c(OC)c1OC)-c1c(cc3c(c1OC)OCO3)CC(C)C(C)C2 (stereo not drawn) | CYP3A, rat | poziotinib metabolism to M2, inhibitor | rat liver microsomes, 0.3 mg/mL | 30 min, with: poziotinib 5 µM | – | IC50 | 6.97 µM
O=C1CCC(N2C(=O)c3ccc(N4CC(C(=O)N5CC(CCN6CCC(CNC(=O)c7cccc(-c8noc(C(F)(F)F)n8)c7)(c7nc(-c8ccccc8)cs7)CC6)C5)C4)cc3C2=O)C(=O)N1 (stereo not drawn) | HDAC5 (Homo sapiens, UniProt Q9UQL6) | enzyme activity, inhibitor | – | – | – | IC50 | 6.14 µM
Cc1c(Cc2cc(F)cc(OC(C)(C)C(=O)O)c2)c2ccc(C(=O)N[C@@H](C)c3cc(F)cc(C(C)(C)C)c3)cc2n1CC1CCC1 | PPARG | ligand displacement, TR-FRET | – | – | – | IC50 | 0.00305 µM
CCCCCCCCC(=O)Nc1ccc(Nc2ncc(F)c(-c3cc(F)c4nc(C)n(C(C)C)c4c3)n2)cc1 | HDAC1 (Homo sapiens, UniProt Q13547) | enzyme activity, inhibitor | – | – | – | IC50 | > 1 µM
CCCSc1nc(Sc2ncccn2)c2nnn(CCO)c2n1 | KDM1A (Homo sapiens, UniProt O60341) | enzyme activity, inhibitor, fluorescence | – | – | – | IC50 | 8.89 µM

Excerpt of the above:
Structure (SMILES) | target or system | assay | system | conditions | how to read | quantity | value
O=C(NC1CCN(Cc2ccccc2)C1)C(C(F)(F)F)C(F)(F)F (stereo not drawn) | Rhomboid protease AarA | enzyme activity, inhibitor, fluorescence | – | – | – | IC50 | 21 µM
Cc1c(Cc2cc(Cl)cc(O[C@@H](C)C(=O)O)c2)c2ccc(C(=O)N[C@@H](C)c3ccc(C(C)(C)C)cc3)cc2n1CC1CCC1 | PPARG | ligand displacement, TR-FRET | – | – | – | IC50 | 0.0116 µM
